# Measured values collected from several papers.
# Numbered parts are unrelated; each lists some results of a single study. Positions count from the first letter of the parent shown.

# Sample 1
# Target: Histone acetyltransferase KAT6A, both winged helices, GST fusion (KAT6A, Homo sapiens, UniProt Q92794, residues 1-181)
# Technique: protein binding microarray
# Molecule type: double-stranded DNA, one strand shown
# Matrix: in vitro
# Concentration: not given
# Notes: 8-mer, flanks averaged, mean of 2 arrays, mostly near background
# Reference: not given
# Reading: higher = stronger binding
# Target sequence (chain): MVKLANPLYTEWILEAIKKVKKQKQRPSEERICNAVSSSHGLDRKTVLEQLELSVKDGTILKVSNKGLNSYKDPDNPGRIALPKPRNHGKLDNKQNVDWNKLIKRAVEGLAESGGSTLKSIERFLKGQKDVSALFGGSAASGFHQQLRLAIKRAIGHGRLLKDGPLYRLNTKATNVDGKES
Strand,E-score
ATGTCCTA,-0.0764
CATGCGCC,0.193
CGAACGAA,-0.0257
CTGGGAAC,-0.0568
AAGTATGG,-0.119
CAAATGTG,0.019
TCGTAGAA,-0.0827
CACATCTC,-0.0825
GAGAAGCA,-0.183
GTTTGAAA,-0.0355
CGCATAAA,0.0996
CCAGATTC,-0.159
AACTAATG,-0.0562
AGCGTCGA,-0.0579
CACACGAC,0.026
ACCGGAAC,0.192
CCAAACAC,-0.117
CATGGAAG,-0.131
CTGAAGGC,-0.143
CCCGGGCC,0.314
ATAGCCTG,-0.182
AAAATTAT,0.0238
CACTGTGA,-0.0317
CTTTGAAA,-0.0778

# Sample 2
# Target: RING finger protein unkempt homolog, zinc fingers 1-6, GST-SBP tag (UNK, Homo sapiens, UniProt Q9C0B0, residues 30-357)
# Technique: RNA Bind-n-Seq
# Molecule type: RNA
# Matrix: in vitro
# Concentration: not given
# Notes: RNA with constant flanks, ends assumed
# Reference: input RNA pool
# Reading: higher = stronger binding
# Shared flanks, not repeated: GGGAGUUCUACAGUCCGACGAUC … CAACAGAGGAUUGAGCAUCA
# Residues (chain): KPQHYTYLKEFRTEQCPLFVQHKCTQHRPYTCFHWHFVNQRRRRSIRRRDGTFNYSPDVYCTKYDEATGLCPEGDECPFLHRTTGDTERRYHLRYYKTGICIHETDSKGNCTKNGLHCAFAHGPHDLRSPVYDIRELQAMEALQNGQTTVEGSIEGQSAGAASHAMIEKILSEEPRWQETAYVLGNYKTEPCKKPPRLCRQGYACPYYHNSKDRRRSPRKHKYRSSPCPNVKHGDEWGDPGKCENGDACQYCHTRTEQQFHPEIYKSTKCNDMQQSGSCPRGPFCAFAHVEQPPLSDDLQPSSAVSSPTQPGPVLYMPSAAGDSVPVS
Strand,bound/input enrichment
GAGGAGAAGCAGCGGGAGCUGGCCCGGAAGGGCUCCCUGAAGAAUGGCAGCAUGGGCCGCCCUGUCAACCAGCAACCCAAGAAGAACAAUGUCAUGGCCCGAACAAGGCUGGUCGUCCCC,0.154 ratio
UCAGGAUACUGUAGUUUCCUCUAUCUAAUAGAGAACUUUUUGUUAACAGACACUGUAAAACCGUUUUGCUUUGUUGAAUAAUACGUGUGUACCUAAAAGAGGUAAGAGCAAAAAGUGUAA,0.377 ratio
GAUUAUUUAUUCAAGUUACUUCUGAUUGGCGAUUCUGGGGUUGGAAAGUCCUGCCUUCUCCUCCGGUUUGCAGAUGAUACGUAUACGGAAAGCUACAUCAGCACAAUUGGUGUGGAUUUC,0.216 ratio
AAUGGACAAGAAGUCAAAAUCGAUCAGAGAAAUGUUAAAAAAGAGUUCACUAGCCAUGCUUCCGAUUCUCAUAUCUUAGAUUAUUAUGAAAAUCCAGCCAUCAAAGAGGAUGUAUCAACA,0.882 ratio
GCCUCCCUGGGUCUAGAGAAGUUGGUAAGCCCUCCAGCCUCAGCCGCUGCUUCCAGCCCCCGCUCUUCUCCAUCUCCACAGCCCGUUUCAGAGCUUGACUUGUCCUCAGAGCCACAGCAG,0.334 ratio
AGGAAAAACCAAACUACAAAGAGAUUUGUUUAUAAUAUACCGCCUAACAGUGAGACAAAGGCCGAAGAUUGCUCAGUGAUGCAGCCCCCUGCUGCCUACCCAGAAGAAAGCAAGGCCUUA,0.261 ratio
GAAGAAGGGCUGAAGACAGCUGAUCCCCAUGACUGCUCUGCUUAUACUGGCUGGACAGGCACCGCCCUUUUGUACCUGCAGUUGUACCGGGUCACAUGUGACCAAACCUACCUGCUCCGA,0.0696 ratio

# Sample 3
# Target: RNA binding protein fox-1 homolog 2, RRM domain, GST-SBP tag (RBFOX2, Homo sapiens, UniProt O43251-10, residues 100-194)
# Technique: RNA Bind-n-Seq
# Molecule type: RNA
# Matrix: in vitro
# Concentration: 365 nM
# Notes: natural RNA segment, single round, ends assumed
# Reference: no-protein control
# Reading: higher = stronger binding
# Shared flanks, not repeated: GGGAGUUCUACAGUCCGACGAUC … UGGAAUUCUCGGGUGCCAA
# Residues (chain): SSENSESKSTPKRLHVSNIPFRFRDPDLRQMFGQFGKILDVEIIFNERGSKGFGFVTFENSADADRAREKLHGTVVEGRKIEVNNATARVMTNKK
Strand,RBNS enrichment (R)
GGUGGGGCUGGGAGAGGAGGAACAGAAGGAAAGCCAUAGCGCUCUCUUGCCCCUUGGCAUGUACCCCAAGGCCUGAUGGCCACUGGGCUCAGCCUGUCCCCCACUCCUGC,0.237
CAAGGCAAGGAAGGGUGUUGCAGAGAGGGAACAGCAUAUGCAAAGGCGUAUCAGUUCAUGGCAUCACAUCUUUCACUGGGGAAGCCAGUUUCCACAGGCAGCAUCCCAAG,0.87
GUAUAUACCCAAAGGACUAUAAAUCAUGCUGCUAUAAAGACACAUGCACACGUAUGUUUAUUGUGGCAUUAUUCACAAUAGCAAAGACUUGGAACCAACCCAAAUGUCCA,0.889
ACAGGGCAGGGGGCAGCAGGAUACCUCCAGCCAGGCCUCUGUGGCCUCUGUUUCCUUCUCCCUUUCUUGGCCCUCCUCUGCUCCUCCCCACACCCUGCAGGCAAAAGAAA,0.582
CUAAUCUGAAAUACACAUAAAUGUCAGUUACAGAGGAACAUUGUUGGGGGCAGGAGGUAAAGAAACAUCUUAGAGAAAUCCACUUUACUAUCAAGUUCACAACCAGUUUU,0.419
UCUCUAUUUAUCUUAGAAGUUUAGUUUCCCCCACCUCCCCUACCUUCUCUAGGUGGACAUUAAACCAUCGUCCAAAGUACAUGAGAGUCACUGACUCUGUUCACACAACU,0.486
CACCAAGGCUGAUUUAUGUUAUUGCUGGUCUUUUUAGGACAAUGGAUGCAGAAUGAGGUAGCAUUCGAGUUGGAACCAAGAAGACUCUAAUGAUGUAUGCCCACCUUUCA,3.5
GAUGUAUAAAGCAACAUGAAACAUUAGCCCUCCUUUUAUUUUAAAGACUAAUGUUAAUUGUUCUUAAAACUGGAUUUUUUUUCCUUAAAGCAAUUUUUUUCUUUUCGAUU,0.875
CGAUCACCAAGCAAGAAGCCAUUAGCAAGCUGCUGGGGGGGUCAGGGGUUCUGCUGGCUCAUACCCUCAGAAGAGCACCUGGGAGUAACCUAGUCAUGGCAAAGAAGAUG,0.259
UAAUUGUUUGAAAUUUUUCUAGAGCCAAAGAAGCUCUUUAAAGAAGUUGUUUCUUCCAAAGAACAAAGCCAGGUUAAUGACAUUCAAUUCUAAAUGAUACAUUGGAAUUG,0.25
GUCUUUGAUUGGAGAGAGUAACUUUUUAAUUCUGUUGUUUUGCAGUUUGGCUCUGUAGGAGUGAGUGGCGAUUCAAAGAUGCCGGCGUCCCGCAGUGUGCGGUUCGUGCC,0.938
GAUAGCUUCUAUUUGUUAGAAGAUGACCUAAGUCAGAAAAAAGUAGUUCCCCCUUCCUGAGAGACUCUGUCUGGGCCAGAAGCCAUUCAUUGAAAGGUUGCGAUGGCAAC,0.192

# Sample 4
# Target: CCNB3, cyclin fold, Cln2 fusion (human)
# Technique: yeast growth competition, sequencing
# Matrix: yeast
# Notes: strong parent motif
# Reference: not given
# Reading: higher = stronger binding
# Starting sequence: SCAPER docking peptide (human); SNARRSLNFGGST; partner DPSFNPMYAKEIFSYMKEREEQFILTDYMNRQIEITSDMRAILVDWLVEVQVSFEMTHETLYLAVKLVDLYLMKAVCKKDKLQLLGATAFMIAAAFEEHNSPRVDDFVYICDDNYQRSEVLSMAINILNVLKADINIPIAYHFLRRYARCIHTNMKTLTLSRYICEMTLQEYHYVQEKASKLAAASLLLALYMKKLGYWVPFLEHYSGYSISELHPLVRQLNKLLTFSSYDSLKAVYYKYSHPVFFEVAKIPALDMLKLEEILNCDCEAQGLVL
Change,normalised enrichment score
SNARLSLNFGGST [R5L],0.282
SNARRSLNFGGSW [T13W],0.402
SNARRSQNFGGST [L7Q],0.379
SNARRSLNFGGSL [T13L],1.47
SNARRSLNFGGVT [S12V],1.09
VNARRSLNFGGST [S1V],1.89
SNARRVLNFGGST [S6V],2.28
SAARRSLNFGGST [N2A],1.61
SNARRSLNFGPST [G11P],1.01
SNGRRSLNFGGST [A3G],0.079
SNARRSLPFGGST [N8P],0.699
SNARRSLNWGGST [F9W],1.26
SNARRCLNFGGST [S6C],1.16
SNVRRSLNFGGST [A3V],2.27

# Sample 5
# Target: Interferon regulatory factor 7, full length, phosphomimetic (IRF7, Homo sapiens, UniProt Q92985, residues 1-503, S101K/S471D/S472D/S475D/S476D/S477D/S483D/S484D/S487D)
# Sequence of UniProt Q92985 (whole entry, unmodified, looked up): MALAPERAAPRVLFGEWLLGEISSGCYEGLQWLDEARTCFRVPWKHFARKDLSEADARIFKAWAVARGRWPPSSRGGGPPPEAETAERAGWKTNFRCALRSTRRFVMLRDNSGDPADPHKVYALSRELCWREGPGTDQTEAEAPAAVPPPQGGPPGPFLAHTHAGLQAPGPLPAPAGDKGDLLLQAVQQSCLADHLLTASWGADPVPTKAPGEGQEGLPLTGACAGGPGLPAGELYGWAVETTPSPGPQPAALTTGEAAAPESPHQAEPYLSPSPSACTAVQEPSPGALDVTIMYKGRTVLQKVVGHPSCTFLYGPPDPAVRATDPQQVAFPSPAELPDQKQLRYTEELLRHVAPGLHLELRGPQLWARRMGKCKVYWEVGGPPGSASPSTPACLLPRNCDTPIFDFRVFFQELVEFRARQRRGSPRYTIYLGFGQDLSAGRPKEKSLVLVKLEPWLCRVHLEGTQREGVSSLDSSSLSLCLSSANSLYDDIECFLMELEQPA
# Technique: protein-binding microarray
# Molecule type: double-stranded DNA, one strand shown
# Matrix: in vitro
# Concentration: 250 nM
# Notes: 60-bp whole probe
# With: salmon DNA 0.4 mg/ml
# Reference: random background probes
# Reading: higher = stronger binding
# Shared flanks, not repeated: GCCTAGCAC … GTCTTGATTCGCTTGACGCTGCTG
Strand,log fluorescence
TTAGAACAGGGGTATCGATTAGTGCTA,0.372 z-score
CTAGGTTTCCTACTGCTTTAGTGCTAG,1.43 z-score
GACTATTTCAGTCTCGAGACGTGCTAG,1.28 z-score
TTAGGTCTCGGTCTCGGTTCGTGCTAG,4.44 z-score
TCACCGTTTCTTCTAGAACTGTGCTAG,1.33 z-score
GACGAACTGAGTTTCGAGTCGTGCTAG,8 z-score
TTAGGTATCCGACTGCTTTAGTGCTAG,-0.383 z-score
TCAGTTTCCTTCCTCTTACTGTGCTAG,3.53 z-score
TTATATCTCAGTATCGATTAGTGCTAG,1.36 z-score
AGGATCCAGCCTGCAACCTCGTGCTAG,-0.283 z-score
TCATTTTTTCTTTTATTACTGTGCTAG,1.99 z-score
TTAGGTTTCGACACGGGGTTAGTGCTA,3.71 z-score
TCATTTTCATTTTATGACACTGTGCTA,3.91 z-score
TTAGGTTTCCTACTGCGTTAGTGCTAG,1.33 z-score
TTAGAACTGGGTTATCGATTAGTGCTA,0.121 z-score
GAATGTGTCTTAAATAGGAGAGTGCTA,-0.213 z-score
TTAGAACTGGGGGATCGATTAGTGCTA,0.676 z-score

# Sample 6
# Target: PABPC1L2, full length, GST fusion (mouse, UniProt A0ABA7IW68)
# Technique: RNAcompete
# Molecule type: RNA
# Matrix: in vitro
# Concentration: 20 nM
# Notes: 7-mer, probes averaged, single round
# Reference: mean of 7-mers
# Reading: higher = stronger binding
# Target sequence (chain): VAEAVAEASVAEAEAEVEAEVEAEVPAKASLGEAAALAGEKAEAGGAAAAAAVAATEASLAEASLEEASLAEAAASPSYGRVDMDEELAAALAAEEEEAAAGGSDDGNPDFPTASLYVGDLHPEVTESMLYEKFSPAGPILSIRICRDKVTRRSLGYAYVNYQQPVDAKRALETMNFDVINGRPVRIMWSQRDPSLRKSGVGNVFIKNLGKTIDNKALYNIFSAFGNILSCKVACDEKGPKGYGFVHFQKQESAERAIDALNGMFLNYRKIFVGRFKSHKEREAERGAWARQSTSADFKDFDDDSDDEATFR
Strand,7-mer Z-score
UGCUCAC,-0.409
AGGGCCG,0.119
UUUAGUU,-0.335
AAAGGAU,0.519
UUCUACU,-0.376
UCGAUGC,-0.204
GACGGCG,-0.0446
ACCUCCC,-0.373
CAGGCUU,-0.117
CUUAGCU,-0.302
AAACCCA,0.452

# Excerpt of the above (sample 4):
Change,normalised enrichment score
SNARRSLNFGPST [G11P],1.01
SNVRRSLNFGGST [A3V],2.27
VNARRSLNFGGST [S1V],1.89
SNARLSLNFGGST [R5L],0.282
SNARRSLNFGGSL [T13L],1.47
SNGRRSLNFGGST [A3G],0.079
SNARRSLNFGGSW [T13W],0.402
SNARRSLPFGGST [N8P],0.699
SNARRSLNFGGVT [S12V],1.09
SNARRVLNFGGST [S6V],2.28
SAARRSLNFGGST [N2A],1.61
SNARRSQNFGGST [L7Q],0.379
SNARRSLNWGGST [F9W],1.26
